Measurements of several laboratories.
Parts stem from different laboratories: compare values within a part only.
Chain of UniProt P42336 (whole entry, unmodified, looked up): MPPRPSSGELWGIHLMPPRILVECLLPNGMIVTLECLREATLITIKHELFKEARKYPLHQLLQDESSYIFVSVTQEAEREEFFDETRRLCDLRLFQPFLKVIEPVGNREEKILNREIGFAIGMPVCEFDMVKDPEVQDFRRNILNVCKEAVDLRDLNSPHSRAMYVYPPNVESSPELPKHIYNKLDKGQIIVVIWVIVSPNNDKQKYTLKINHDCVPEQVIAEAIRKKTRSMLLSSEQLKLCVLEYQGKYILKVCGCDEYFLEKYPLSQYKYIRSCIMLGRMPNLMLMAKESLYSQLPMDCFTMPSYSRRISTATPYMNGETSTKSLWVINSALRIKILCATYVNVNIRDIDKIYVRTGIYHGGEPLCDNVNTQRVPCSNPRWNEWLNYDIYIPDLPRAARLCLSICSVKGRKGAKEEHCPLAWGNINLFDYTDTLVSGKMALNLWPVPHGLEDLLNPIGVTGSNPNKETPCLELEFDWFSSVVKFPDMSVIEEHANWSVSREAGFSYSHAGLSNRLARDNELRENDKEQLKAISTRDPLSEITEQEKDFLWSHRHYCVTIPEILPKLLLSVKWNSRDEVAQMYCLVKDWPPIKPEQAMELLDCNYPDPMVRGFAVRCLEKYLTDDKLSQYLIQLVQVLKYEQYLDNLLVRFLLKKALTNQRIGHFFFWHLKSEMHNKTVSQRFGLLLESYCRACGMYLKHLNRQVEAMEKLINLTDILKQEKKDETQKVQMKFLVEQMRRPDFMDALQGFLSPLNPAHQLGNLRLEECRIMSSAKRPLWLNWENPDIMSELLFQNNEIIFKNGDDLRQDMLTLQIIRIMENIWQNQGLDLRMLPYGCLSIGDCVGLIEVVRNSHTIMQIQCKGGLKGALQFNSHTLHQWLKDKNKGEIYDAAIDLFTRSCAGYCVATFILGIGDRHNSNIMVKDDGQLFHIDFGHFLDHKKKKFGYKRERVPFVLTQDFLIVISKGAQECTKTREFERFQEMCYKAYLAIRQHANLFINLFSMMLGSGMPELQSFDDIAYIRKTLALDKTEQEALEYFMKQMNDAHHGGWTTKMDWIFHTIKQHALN
Chain of UniProt Q13557 (whole entry, looked up): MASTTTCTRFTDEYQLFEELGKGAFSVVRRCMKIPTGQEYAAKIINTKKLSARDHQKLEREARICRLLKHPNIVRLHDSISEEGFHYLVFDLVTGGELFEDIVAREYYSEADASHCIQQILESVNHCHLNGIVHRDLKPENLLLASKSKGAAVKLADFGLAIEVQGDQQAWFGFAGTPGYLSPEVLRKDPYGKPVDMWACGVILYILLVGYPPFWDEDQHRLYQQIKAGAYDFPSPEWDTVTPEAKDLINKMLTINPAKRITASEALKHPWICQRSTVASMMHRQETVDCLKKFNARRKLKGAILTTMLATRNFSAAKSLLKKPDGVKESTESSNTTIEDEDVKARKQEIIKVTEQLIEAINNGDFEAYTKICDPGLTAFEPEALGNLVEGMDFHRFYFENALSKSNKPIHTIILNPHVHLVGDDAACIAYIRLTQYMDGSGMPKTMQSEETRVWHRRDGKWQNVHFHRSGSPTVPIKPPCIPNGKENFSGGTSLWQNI
Chain of UniProt Q9NRM7 (whole entry, looked up): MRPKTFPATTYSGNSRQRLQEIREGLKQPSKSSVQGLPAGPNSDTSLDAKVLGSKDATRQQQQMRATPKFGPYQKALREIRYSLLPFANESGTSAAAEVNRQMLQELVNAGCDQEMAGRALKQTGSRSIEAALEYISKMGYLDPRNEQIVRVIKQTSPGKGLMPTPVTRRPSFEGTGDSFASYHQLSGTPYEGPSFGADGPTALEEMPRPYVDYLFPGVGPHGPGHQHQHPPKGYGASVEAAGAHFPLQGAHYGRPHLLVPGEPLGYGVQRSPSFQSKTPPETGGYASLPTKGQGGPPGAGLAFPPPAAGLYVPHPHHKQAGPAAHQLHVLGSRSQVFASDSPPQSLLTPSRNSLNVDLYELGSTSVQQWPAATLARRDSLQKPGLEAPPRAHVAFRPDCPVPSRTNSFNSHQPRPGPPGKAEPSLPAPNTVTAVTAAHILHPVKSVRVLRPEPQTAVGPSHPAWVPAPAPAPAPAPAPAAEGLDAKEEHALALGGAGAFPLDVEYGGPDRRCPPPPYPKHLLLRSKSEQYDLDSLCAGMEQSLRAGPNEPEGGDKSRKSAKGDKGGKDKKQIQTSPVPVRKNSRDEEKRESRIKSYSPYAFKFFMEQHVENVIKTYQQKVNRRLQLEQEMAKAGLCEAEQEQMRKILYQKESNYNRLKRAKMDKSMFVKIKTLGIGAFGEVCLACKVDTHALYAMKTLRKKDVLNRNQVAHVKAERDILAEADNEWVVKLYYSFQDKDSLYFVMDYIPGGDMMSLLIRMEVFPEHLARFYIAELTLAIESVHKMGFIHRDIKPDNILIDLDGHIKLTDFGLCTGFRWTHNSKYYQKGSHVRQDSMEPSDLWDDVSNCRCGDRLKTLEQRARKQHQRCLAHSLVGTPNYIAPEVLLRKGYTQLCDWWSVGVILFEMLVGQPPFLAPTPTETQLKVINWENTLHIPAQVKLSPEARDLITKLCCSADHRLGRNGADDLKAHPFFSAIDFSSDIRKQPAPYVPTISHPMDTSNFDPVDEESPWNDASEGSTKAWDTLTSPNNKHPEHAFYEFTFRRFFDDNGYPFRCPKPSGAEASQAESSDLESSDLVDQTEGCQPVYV
Chain of UniProt Q16513 (whole entry, looked up): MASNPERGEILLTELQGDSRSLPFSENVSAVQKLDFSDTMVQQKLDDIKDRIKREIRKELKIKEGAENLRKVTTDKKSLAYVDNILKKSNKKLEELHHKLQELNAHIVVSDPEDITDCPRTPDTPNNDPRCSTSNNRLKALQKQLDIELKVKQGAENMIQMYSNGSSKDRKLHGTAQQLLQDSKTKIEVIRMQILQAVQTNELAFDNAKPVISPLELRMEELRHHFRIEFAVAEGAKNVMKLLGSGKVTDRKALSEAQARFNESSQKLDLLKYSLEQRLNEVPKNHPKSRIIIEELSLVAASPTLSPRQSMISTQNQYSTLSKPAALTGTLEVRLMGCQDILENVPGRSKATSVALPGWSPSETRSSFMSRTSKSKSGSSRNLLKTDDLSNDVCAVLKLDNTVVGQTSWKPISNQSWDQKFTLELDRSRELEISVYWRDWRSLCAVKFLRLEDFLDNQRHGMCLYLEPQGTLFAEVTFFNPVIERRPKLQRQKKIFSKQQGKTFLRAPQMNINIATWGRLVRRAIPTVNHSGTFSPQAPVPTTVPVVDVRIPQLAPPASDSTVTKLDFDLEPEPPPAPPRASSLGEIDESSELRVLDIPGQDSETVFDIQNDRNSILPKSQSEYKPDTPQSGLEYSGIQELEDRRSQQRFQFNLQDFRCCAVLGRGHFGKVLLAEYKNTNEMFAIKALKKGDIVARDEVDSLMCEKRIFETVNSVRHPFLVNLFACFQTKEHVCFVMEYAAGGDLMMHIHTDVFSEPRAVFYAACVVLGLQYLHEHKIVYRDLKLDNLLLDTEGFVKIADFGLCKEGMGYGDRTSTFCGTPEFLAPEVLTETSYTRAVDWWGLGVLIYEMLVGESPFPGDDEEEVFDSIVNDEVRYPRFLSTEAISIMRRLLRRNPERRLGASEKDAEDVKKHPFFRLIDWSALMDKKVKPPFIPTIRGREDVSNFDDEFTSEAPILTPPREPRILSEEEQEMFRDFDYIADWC
Chain of UniProt O75582 (whole entry, looked up): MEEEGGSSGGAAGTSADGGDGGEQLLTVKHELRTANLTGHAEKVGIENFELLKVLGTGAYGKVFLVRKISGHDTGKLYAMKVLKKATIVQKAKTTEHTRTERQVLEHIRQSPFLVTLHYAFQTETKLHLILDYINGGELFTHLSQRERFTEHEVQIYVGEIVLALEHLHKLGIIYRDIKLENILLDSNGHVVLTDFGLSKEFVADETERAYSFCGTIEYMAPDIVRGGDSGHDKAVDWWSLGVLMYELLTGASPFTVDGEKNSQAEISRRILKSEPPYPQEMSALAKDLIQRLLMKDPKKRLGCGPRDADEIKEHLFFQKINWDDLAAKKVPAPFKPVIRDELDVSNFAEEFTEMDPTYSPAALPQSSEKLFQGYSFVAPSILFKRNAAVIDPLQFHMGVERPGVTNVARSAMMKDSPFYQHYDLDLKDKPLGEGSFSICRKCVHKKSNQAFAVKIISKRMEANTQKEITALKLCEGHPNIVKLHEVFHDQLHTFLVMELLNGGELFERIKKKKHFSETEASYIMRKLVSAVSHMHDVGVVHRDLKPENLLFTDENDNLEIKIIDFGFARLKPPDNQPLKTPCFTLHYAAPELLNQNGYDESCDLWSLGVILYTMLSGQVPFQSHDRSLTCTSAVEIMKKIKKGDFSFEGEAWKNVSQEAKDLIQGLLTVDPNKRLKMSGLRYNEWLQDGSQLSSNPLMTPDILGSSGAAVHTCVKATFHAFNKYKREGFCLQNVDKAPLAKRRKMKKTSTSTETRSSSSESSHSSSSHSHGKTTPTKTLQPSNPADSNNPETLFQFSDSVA

Set 1 — mode: inhibitor; tested at: 1 µM; quantity: inhibition
Structure (SMILES): C=CC(=O)N1CCC([C@@H]2CCNc3c(C(N)=O)c(-c4ccc(Oc5ccccc5)cc4)nn32)CC1
CAMK2D (Homo sapiens, UniProt Q13557); enzyme activity: 0%
PRKD1 (Homo sapiens, UniProt Q15139); enzyme activity: 4%
IRAK4 (Homo sapiens, UniProt Q9NWZ3); enzyme activity: 3%
WNK2 (Homo sapiens, UniProt Q9Y3S1); enzyme activity: 46%
PRKG2 (Homo sapiens, UniProt Q13237); enzyme activity: 25%
YES1 (Homo sapiens, UniProt P07947); enzyme activity: 63%
CDPK1 (Plasmodium falciparum, UniProt P62344); enzyme activity: 97%
RIOK1 (Homo sapiens, UniProt Q9BRS2); enzyme activity: 44%
CDK19 (Homo sapiens, UniProt Q9BWU1): 23%
HCK (Homo sapiens, UniProt P08631); enzyme activity: 81%
STK3 (Homo sapiens, UniProt Q13188); enzyme activity: 21%

Set 2 — effect on: cell-free assay; method: competition with immobilised ligand; tested at: 1 µM; quantity: remaining binding
Compound: O=C(NCc1ncc(C(F)(F)F)cc1Cl)c1ccc2c(c1)C1(CCS(=O)(=O)CC1)[C@H](C1CC1)N2S(=O)(=O)c1ccc(F)cc1
KIT (Homo sapiens, UniProt P10721, V559D/V654A): 100%
CDK18 (Homo sapiens, UniProt Q07002): 100%
PKN2 (Homo sapiens, UniProt Q16513): 70%
PTK6 (Homo sapiens, UniProt Q13882): 100%
MAP2K5 (Homo sapiens, UniProt Q13163): 69%
EGFR (Homo sapiens, UniProt P00533, T790M): 100%
Ribosomal protein S6 kinase alpha-5, N-terminal kinase domain (RPS6KA5, Homo sapiens, UniProt O75582): 95%
Ribosomal protein S6 kinase alpha-6, N-terminal kinase domain (RPS6KA6, Homo sapiens, UniProt Q9UK32): 78%
STK26 (Homo sapiens, UniProt Q9P289): 100%
MYLK3 (Homo sapiens, UniProt Q32MK0): 79%

Set 3 — effect on: enzyme activity; mode: inhibitor; tested at: 0.5 µM; relative to: control; quantity: remaining activity
Target: Tyrosine-protein kinase Lyn, isoform B (LYN, Homo sapiens, UniProt P07948)
Chain of UniProt P07948 (whole entry, looked up): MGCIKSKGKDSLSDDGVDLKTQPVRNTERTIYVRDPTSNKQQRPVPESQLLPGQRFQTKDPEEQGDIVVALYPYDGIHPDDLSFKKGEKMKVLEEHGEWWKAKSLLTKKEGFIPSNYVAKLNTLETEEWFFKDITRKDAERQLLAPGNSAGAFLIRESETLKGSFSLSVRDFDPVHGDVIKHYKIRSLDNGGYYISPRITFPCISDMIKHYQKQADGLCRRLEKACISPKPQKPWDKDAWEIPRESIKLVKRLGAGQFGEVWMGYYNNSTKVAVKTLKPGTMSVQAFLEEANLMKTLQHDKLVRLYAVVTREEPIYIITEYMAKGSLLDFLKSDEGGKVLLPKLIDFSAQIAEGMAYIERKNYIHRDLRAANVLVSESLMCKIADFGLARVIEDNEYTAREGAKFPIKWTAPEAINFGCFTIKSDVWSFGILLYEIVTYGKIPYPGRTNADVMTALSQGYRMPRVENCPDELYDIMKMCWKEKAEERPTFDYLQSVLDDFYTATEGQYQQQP
CCOC(=O)c1c(C)[nH]c(/C=C2\C(=O)Nc3ccccc32)c1C: 98.4%
Nc1[nH]nc2nc3ccccc3nc12: 108%
COc1ccc(CNC(=O)Nc2ncc([N+](=O)[O-])s2)cc1: 97.7%
O=C1NC(=O)C(c2cn(CCCn3ccnc3)c3ccccc23)=C1Nc1ccccc1: 103%
O=C(O)c1ccc2c3c1cccc3c(=O)n1c3ccccc3nc21: 99.4%
COc1ccc(C(=O)Nc2sc3c(c2C(N)=O)CCCC3)cc1OC: 95.9%
N#CC(C#N)=C(N)/C(C#N)=C/c1ccc(O)cc1: 102%
Nc1ncnc2n[nH]c(Nc3ccc(F)cc3)c12: 90.3%
Nc1ccc2ncnc(NCCc3ccc(Oc4ccccc4)cc3)c2c1: 101%
O=S(=O)(c1cccc2cnccc12)N1CCCNCC1: 102%
Cc1nc(-c2ccccc2)c(-c2ccncc2)o1: 104%
Cc1ccc(Nc2nccc(N(C)c3ccc4c(C)n(C)nc4c3)n2)cc1S(N)(=O)=O: 58.9%
CO[C@H]1C[C@@H]2CC[C@@H](C)[C@@](O)(O2)C(=O)C(=O)N2CCCC[C@H]2C(=O)O[C@H]([C@H](C)C[C@@H]2CC[C@@H](O)[C@H](OC)C2)CC(=O)[C@H](C)/C=C(\C)[C@@H](O)[C@@H](OC)C(=O)[C@H](C)C[C@H](C)/C=C/C=C/C=C/1C: 105%
NCCNc1ncc(C(N)=O)c(Nc2cccc(C(F)(F)F)c2)n1: 81.9%
CN(C)c1ccc(C=C2C(=O)Nc3ccccc32)cc1: 97.8%
Cc1cccc(-c2[nH]c(C(C)(C)C)nc2-c2ccc3c(c2)OCO3)n1: 82.8%
O=C(CCCc1ccc(-c2ccccc2F)cc1)Nc1ccc(O)cc1: 87.7%

Set 4 — tested at: 1 µM; quantity: remaining binding
Compound: COc1ccc2[nH]c3c4[nH]c5ccc(OC)cc5c4c4c(c3c2c1)C(=O)NC4=O
MAPK9 (Homo sapiens, UniProt P45984); competitive binding; JNK2: 55%
CDK4 (Homo sapiens, UniProt P11802); competitive binding panel; relative to: vehicle: 100%
PIK3C2G (Homo sapiens, UniProt O75747); competitive binding panel; relative to: vehicle: 76%
CSNK1G1 (Homo sapiens, UniProt Q9HCP0); competitive binding panel; relative to: vehicle: 74%
MAPK6 (Homo sapiens, UniProt Q16659); competitive binding panel, item: ERK3; relative to: vehicle: 84%
PIK3CA (Homo sapiens, UniProt P42336, E545A); competitive binding panel; relative to: vehicle: 100%
LATS2 (Homo sapiens, UniProt Q9NRM7); competitive binding panel; relative to: vehicle: 43%
PIK3CA (Homo sapiens, UniProt P42336, E545K); competitive binding panel; relative to: vehicle: 84%
EPHB3 (Homo sapiens, UniProt P54753); competitive binding panel; relative to: vehicle: 85%
ANKK1 (Homo sapiens, UniProt Q8NFD2); competitive binding panel; relative to: vehicle: 71%
BRAF (Homo sapiens, UniProt P15056); competitive binding panel; relative to: vehicle: 86%
NTRK2 (Homo sapiens, UniProt Q16620); competitive binding; TRKB: 59%

For quick reference, copied from above (set 2):
Ribosomal protein S6 kinase alpha-5, N-terminal kinase domain (RPS6KA5, Homo sapiens, UniProt O75582): 95%
CDK18 (Homo sapiens, UniProt Q07002): 100%
EGFR (Homo sapiens, UniProt P00533, T790M): 100%
MAP2K5 (Homo sapiens, UniProt Q13163): 69%
